Published values collected from several papers.
Each line is one published result; not all experiments were run side by side. “And” joins repeats or separate records; there may be more than shown. Numbers after ± are the reported error.
embR: Transcriptional regulatory protein EmbR (embR, Mycobacterium tuberculosis, UniProt P9WGJ9)
UniProt P21554, sequence (whole entry, unmodified, looked up): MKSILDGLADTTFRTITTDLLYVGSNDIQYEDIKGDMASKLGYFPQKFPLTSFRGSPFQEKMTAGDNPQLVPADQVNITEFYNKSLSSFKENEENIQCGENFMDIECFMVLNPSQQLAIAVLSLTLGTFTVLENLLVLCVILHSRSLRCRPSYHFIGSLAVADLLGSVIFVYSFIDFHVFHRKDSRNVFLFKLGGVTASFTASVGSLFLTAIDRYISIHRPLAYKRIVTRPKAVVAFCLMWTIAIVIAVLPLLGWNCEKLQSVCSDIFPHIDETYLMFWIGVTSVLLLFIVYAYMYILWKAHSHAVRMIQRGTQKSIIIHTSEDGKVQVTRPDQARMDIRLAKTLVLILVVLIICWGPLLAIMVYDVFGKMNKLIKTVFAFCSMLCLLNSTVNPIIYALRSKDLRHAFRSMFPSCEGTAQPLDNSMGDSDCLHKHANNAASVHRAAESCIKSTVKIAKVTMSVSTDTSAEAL
UniProt P9WGJ9, sequence (whole entry, looked up): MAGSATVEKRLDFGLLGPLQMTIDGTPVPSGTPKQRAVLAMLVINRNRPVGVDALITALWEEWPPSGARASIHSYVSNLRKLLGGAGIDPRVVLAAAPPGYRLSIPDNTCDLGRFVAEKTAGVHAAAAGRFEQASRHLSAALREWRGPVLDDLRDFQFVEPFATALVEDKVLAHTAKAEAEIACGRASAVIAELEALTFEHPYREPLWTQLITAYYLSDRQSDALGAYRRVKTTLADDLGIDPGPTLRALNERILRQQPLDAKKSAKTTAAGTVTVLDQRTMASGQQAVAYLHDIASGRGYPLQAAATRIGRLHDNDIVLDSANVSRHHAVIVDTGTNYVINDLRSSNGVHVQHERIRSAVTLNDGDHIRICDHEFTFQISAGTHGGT
UniProt P25123, sequence (whole entry, looked up): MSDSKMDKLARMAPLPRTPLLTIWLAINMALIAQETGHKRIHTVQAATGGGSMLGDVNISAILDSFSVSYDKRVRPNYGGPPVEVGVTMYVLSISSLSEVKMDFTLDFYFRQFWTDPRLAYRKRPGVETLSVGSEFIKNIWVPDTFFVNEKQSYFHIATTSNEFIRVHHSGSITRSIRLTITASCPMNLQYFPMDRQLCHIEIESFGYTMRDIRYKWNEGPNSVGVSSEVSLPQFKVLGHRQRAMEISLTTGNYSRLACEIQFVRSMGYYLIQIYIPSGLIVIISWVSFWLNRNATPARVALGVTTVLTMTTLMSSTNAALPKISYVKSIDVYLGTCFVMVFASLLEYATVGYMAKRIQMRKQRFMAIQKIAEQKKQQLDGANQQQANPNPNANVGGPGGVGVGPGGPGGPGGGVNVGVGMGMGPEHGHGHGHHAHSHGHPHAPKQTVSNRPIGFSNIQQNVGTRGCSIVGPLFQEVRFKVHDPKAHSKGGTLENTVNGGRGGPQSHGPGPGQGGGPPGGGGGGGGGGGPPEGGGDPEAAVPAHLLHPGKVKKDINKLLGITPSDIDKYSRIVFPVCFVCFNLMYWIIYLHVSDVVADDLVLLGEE
UniProt P34975, sequence (whole entry, looked up): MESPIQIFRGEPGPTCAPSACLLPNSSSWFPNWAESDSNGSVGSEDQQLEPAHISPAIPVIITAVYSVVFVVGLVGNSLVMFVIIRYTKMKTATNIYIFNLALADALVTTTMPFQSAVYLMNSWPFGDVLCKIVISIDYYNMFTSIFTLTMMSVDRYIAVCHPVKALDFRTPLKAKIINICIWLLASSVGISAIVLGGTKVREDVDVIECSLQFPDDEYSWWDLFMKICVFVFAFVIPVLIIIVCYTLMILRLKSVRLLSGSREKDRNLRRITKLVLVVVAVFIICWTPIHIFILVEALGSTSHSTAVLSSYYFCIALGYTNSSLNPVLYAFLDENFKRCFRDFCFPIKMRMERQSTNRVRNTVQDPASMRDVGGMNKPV
UniProt Q9BUB5, sequence (whole entry, looked up): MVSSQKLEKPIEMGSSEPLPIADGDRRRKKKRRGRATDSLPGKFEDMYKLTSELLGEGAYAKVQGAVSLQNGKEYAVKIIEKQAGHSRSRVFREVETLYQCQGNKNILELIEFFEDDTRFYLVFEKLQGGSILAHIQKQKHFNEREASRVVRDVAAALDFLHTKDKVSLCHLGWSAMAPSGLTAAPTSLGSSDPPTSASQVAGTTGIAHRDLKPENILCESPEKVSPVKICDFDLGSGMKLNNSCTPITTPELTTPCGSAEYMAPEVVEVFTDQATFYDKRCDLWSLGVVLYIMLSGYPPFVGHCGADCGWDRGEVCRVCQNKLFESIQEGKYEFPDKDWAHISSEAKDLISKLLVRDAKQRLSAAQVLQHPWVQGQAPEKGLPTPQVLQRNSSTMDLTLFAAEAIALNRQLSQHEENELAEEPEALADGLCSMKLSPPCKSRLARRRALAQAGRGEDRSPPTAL
UniProt Q9UQB9, sequence (whole entry, looked up): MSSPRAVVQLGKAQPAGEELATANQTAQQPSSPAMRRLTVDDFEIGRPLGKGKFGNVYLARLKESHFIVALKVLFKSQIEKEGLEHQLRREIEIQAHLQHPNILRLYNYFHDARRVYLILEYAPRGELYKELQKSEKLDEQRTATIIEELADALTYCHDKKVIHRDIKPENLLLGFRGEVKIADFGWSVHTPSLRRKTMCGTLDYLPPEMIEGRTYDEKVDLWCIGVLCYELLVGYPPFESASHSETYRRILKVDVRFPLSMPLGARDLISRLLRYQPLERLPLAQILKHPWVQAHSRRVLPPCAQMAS
UniProt Q16832, sequence (whole entry, looked up): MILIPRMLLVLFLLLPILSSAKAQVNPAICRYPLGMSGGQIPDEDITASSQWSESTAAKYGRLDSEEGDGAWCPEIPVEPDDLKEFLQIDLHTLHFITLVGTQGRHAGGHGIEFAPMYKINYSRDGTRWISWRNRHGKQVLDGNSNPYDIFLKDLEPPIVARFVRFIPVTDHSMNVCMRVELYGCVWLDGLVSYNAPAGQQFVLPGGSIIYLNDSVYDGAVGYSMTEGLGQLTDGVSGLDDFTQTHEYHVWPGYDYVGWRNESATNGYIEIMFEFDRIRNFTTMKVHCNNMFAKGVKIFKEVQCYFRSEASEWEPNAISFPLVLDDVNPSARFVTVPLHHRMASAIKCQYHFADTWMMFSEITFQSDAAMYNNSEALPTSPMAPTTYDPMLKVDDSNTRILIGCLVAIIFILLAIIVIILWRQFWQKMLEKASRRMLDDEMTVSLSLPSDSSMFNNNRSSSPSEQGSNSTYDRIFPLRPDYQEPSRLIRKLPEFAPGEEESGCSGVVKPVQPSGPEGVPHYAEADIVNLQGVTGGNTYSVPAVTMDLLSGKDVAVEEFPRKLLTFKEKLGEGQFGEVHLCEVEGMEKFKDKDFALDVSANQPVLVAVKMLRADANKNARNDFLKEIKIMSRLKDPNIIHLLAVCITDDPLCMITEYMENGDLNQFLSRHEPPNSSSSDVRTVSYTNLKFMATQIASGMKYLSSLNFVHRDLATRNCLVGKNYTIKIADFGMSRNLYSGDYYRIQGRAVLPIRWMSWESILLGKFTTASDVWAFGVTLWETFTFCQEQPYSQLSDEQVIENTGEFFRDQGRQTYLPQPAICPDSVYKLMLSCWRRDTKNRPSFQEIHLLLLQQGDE
UniProt Q01959, sequence (whole entry, looked up): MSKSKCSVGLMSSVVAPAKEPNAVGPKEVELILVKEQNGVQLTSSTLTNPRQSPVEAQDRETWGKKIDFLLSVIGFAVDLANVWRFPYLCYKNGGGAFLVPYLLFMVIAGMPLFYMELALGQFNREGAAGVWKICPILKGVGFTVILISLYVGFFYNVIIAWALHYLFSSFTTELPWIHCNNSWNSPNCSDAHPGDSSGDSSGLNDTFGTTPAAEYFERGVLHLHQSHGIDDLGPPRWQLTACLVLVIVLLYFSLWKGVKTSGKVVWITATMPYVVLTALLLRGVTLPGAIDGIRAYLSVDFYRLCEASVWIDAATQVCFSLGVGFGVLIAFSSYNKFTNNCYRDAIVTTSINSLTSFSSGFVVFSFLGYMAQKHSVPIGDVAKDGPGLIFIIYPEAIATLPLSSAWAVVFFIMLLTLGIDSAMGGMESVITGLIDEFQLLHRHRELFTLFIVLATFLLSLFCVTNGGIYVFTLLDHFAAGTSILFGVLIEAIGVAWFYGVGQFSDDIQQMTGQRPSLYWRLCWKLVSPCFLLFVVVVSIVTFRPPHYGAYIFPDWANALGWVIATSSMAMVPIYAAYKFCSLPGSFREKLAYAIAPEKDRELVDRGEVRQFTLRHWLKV

Cc1ccc2c(C(C[N+](=O)[O-])c3cccs3)c(-c3ccccc3)[nH]c2c1 (stereo not drawn)
Emax (Cannabinoid receptor 1 (CNR1, Homo sapiens, UniProt P21554, I169A); Gαi1-γ2 dissociation, BRET): 95.6 ± 4.41%

Cc1cc(C(=O)Nc2nc3cccc(C)c3n2[C@H]2CCCCN(C(=O)/C=C/CN(C)C)C2)ccn1
survival (Trypanosoma brucei brucei; 2T1 CLK1 overexpressing; 10 µM, DMSO pretreated; relative to: maximum): 9.4% and 7.76% and 5.63% and 9.14%

COc1ccccc1-c1n[nH]c2nc(NC3CCN(C(=O)Cc4ccc(F)cc4F)CC3)ncc12
relative abundance (bead binding, competition bead pull-down, item: LINJ.28.3060; Leishmania donovani extract; 10 µM; relative to: vehicle): 0.9

COc1ccccc1C(C[N+](=O)[O-])c1c(-c2ccccc2)[nH]c2ccccc12 (stereo not drawn)
Emax (Cannabinoid receptor 1 (CNR1, Homo sapiens, UniProt P21554, F191A); Gαi1-γ2 dissociation, BRET): 68 ± 3.69%

O=C1NC2(CC2)COc2ncc(F)cc2[C@H]2COCCN2c2ccn3ncc1c3n2
serum urea (Sprague-Dawley rat, female, serum; oral, 20 mg/kg/day, end of recovery, 4-week subacute toxicity): 3.31 ± 0.66 mmol/L

Cc1sc2c(c1C)C(c1ccc(Cl)cc1)=NC(CC(=O)OC(C)(C)C)c1nnc(C)n1-2 (stereo not drawn)
inhibition (Kappa-type opioid receptor (Oprk1, Rattus norvegicus, UniProt P34975); radioligand binding; 1 µM): 3%

Nc1ccc(/C=C/C(=O)N2CCc3c(oc4c(-c5ccc(F)cc5)cc(-c5ccc(C(=O)N6CCC(F)(F)CC6)cn5)cc34)C2)cn1
remaining binding (MAP kinase-interacting serine/threonine-protein kinase 1 (MKNK1, Homo sapiens, UniProt Q9BUB5); binding, competition with immobilised ligand; 1 µM): 100%

O=[N+]([O-])CC(c1ccco1)c1c(-c2ccccc2)[nH]c2ccccc12 (stereo not drawn)
Emax (Cannabinoid receptor 1 (CNR1, Homo sapiens, UniProt P21554, I245A); Gαi1-γ2 dissociation, BRET): 49.6 ± 6.52%

CC(C)C[C@H](NC(=O)[C@H](C)NC(=O)[C@H](CCC(=O)O)NC(=O)[C@@H](N)Cc1c[nH]cn1)C(=O)N[C@@H](COP(=O)(O)O)C(=O)N[C@@H](CC(=O)O)C(=O)N1CCC[C@H]1C(=O)N[C@@H](CC(=O)O)C(=O)O
koff (embR; biolayer interferometry; 25 °C): 0.001035 ± 9e-06 s⁻¹

CCCCCn1cc(C(=O)c2cccc3ccccc23)c2ccccc21
Emax (Cannabinoid receptor 1 (CNR1, Homo sapiens, UniProt P21554, F177A); Gαi1 engagement, agonist, BRET; relative to: reference agonist at wild-type CB1): -4.2 ± 1.8%

CC(C)(C)C(=O)OCOP(=O)(OCOC(=O)C(C)(C)C)C1CCCN(O)C1=O (stereo not drawn)
log TGI (OVCAR-4): -4.22 log M

CC(C)CC(C(=O)N1CC2(CC1C#N)C(=O)Nc1ccccc12)N(C)C(=O)c1cc2c(F)cc(F)c(F)c2[nH]1 (stereo not drawn)
remaining activity (Replicase polyprotein 1ab, main protease (rep, Porcine epidemic diarrhea virus, UniProt P0C6Y4); protease activity, inhibitor; 0.1 µM): 90.2%

CS(C)(=O)=Nc1ccc(-c2ccc(-c3nc4cc(O[C@@H]5CO[C@H]6[C@@H]5OC[C@H]6O)[nH]c4cc3F)cc2)cc1
inhibition (Aurora kinase C (AURKC, Homo sapiens, UniProt Q9UQB9); enzyme activity, inhibitor; 10 µM): 3%

O=C1NC(=O)c2c1c1cc(F)c[n+]3c1c1c2c2cc(O)ccc2[n]1[Ru-4]312([N]=C=S)[S+]3CC[S+]1CC[S+]2CC3 (stereo not drawn)
remaining activity (Serine/threonine-protein kinase WNK2 (WNK2, Homo sapiens, UniProt Q9Y3S1); enzyme activity; 100 nM, human enzyme, together with: 10 µM ATP; relative to: untreated): 76%

C=C(C)C1C2OC(=O)C1C1(O)CC3OC34C(=O)OC2C14C (stereo not drawn)
koff (Rdl (Drosophila melanogaster, UniProt P25123); ion current, inhibitor, two-electrode voltage clamp; from τoff, together with: GABA at EC50): 0.11 s⁻¹

CCCCCn1cc(C(=O)c2ccc3c(c2)CC(C)(C)C3)c2ccccc21
Emax (Cannabinoid receptor 1 (CNR1, Homo sapiens, UniProt P21554); GαoA activation, agonist, BRET; relative to: reference agonist): 3.7 ± 3.4%

CCOCC1C(c2ccc(Cl)c(Cl)c2)CC2CCC1N2C (stereo not drawn)
remaining activity (Sodium-dependent dopamine transporter (SLC6A3, Homo sapiens, UniProt Q01959); dopamine uptake; 0.0001 µM, 0.03333 h, together with: [3H]dopamine; relative to: no inhibitor): 105%

CNC(=O)N1CCN(c2ccc(NC(=O)Cn3c(C)c(C(=O)c4ccc(OC)cc4)c4ccccc43)cc2C(F)(F)F)CC1
selectivity ratio (Discoidin domain-containing receptor 2 (DDR2, Homo sapiens, UniProt Q16832); competition binding; relative to: DDR2 over DDR1): > 65

COc1ccccc1-c1n[nH]c2nc(N[C@H]3CC[C@H](NS(=O)(=O)CC(C)C)CC3)ncc12
relative abundance (bead binding, competition bead pull-down, item: LINJ.06.0370; Leishmania donovani extract; 10 µM; relative to: vehicle): 0.97

CC(C)C[C@H](NC(=O)[C@@H](N)CO)C(=O)N[C@@H](CCC(=O)O)C(=O)N[C@H](C(=O)N[C@H](C(=O)N[C@@H](CCC(=O)O)C(=O)N[C@@H](C)C(=O)N[C@@H](CC(=O)O)C(=O)O)[C@@H](C)OP(=O)(O)O)C(C)C
kon (embR; binding): 200 ± 40 M⁻¹ s⁻¹

CCCCCn1cc(C(=O)c2cccc3c2CC(C)(C)C3)c2ccccc21
Emax (Cannabinoid receptor 1 (CNR1, Homo sapiens, UniProt P21554, H178A); Gαi1 engagement, agonist, BRET; relative to: reference agonist at wild-type CB1): 81.9 ± 11.8%

CC[C@H](C)[C@H](NC(=O)[C@H](CO)NC(=O)[C@H](Cc1ccc(O)cc1)NC(=O)[C@H](Cc1ccc(O)cc1)NC(=O)[C@H](CC(N)=O)NC(=O)CNC(=O)[C@H](CO)NC(=O)[C@H](Cc1ccc(O)cc1)NC(=O)[C@H](CO)NC(=O)[C@H](CO)NC(=O)[C@H](CC(N)=O)NC(=O)COCCOCCNC(=O)CN1CCN(CC(=O)O)CCN(CC(=O)O)CCN(CC(=O)O)CC1)C(=O)N[C@@H](CC(C)C)C(N)=O [copper-64 labelled]
tumour uptake (dynamic PET; KPC mouse, pancreatic cancer model, blood; intravenous, 0.1 min, 49 days after tamoxifen): 2.95 %ID/mL

CCCCCn1cc(C(=O)c2ccc3ccccc3c2)c2ccccc21
Emax (Cannabinoid receptor 1 (CNR1, Homo sapiens, UniProt P21554, F174A); Gαi1 engagement, agonist, BRET; relative to: reference agonist at wild-type CB1): 89.2 ± 3.2%

CCn1ncc2ccc(NS(=O)(=O)c3cc([N+](=O)[O-])cc(Cl)c3F)cc21
ΔTm (3-oxoacyl-[acyl-carrier-protein] synthase 1 (kasA, Mycobacterium tuberculosis, UniProt P9WQD9); thermal stabilization, nanoDSF; 100 µM): -0.87 °C

Some of these lines once more:
CNC(=O)N1CCN(c2ccc(NC(=O)Cn3c(C)c(C(=O)c4ccc(OC)cc4)c4ccccc43)cc2C(F)(F)F)CC1
selectivity ratio (Discoidin domain-containing receptor 2 (DDR2, Homo sapiens, UniProt Q16832); competition binding; relative to: DDR2 over DDR1): > 65

CC[C@H](C)[C@H](NC(=O)[C@H](CO)NC(=O)[C@H](Cc1ccc(O)cc1)NC(=O)[C@H](Cc1ccc(O)cc1)NC(=O)[C@H](CC(N)=O)NC(=O)CNC(=O)[C@H](CO)NC(=O)[C@H](Cc1ccc(O)cc1)NC(=O)[C@H](CO)NC(=O)[C@H](CO)NC(=O)[C@H](CC(N)=O)NC(=O)COCCOCCNC(=O)CN1CCN(CC(=O)O)CCN(CC(=O)O)CCN(CC(=O)O)CC1)C(=O)N[C@@H](CC(C)C)C(N)=O [copper-64 labelled]
tumour uptake (dynamic PET; KPC mouse, pancreatic cancer model, blood; intravenous, 0.1 min, 49 days after tamoxifen): 2.95 %ID/mL

COc1ccccc1-c1n[nH]c2nc(N[C@H]3CC[C@H](NS(=O)(=O)CC(C)C)CC3)ncc12
relative abundance (bead binding, competition bead pull-down, item: LINJ.06.0370; Leishmania donovani extract; 10 µM; relative to: vehicle): 0.97

Cc1ccc2c(C(C[N+](=O)[O-])c3cccs3)c(-c3ccccc3)[nH]c2c1 (stereo not drawn)
Emax (Cannabinoid receptor 1 (CNR1, Homo sapiens, UniProt P21554, I169A); Gαi1-γ2 dissociation, BRET): 95.6 ± 4.41%
